Assay results pooled from the literature.
“And” joins repeats or separate records; there may be more than shown. ± marks the error that the study gave. Converted amounts (≈) assume the structure as drawn.

`COC[C@H]1O[C@@H]2O[C@H]3[C@H](OC)[C@@H](OC)[C@@H](O[C@H]4[C@H](OC)[C@@H](OC)[C@@H](O[C@H]5[C@H](OC)[C@@H](OC)[C@@H](O[C@H]6[C@H](OC)[C@@H](OC)[C@@H](O[C@H]7[C@H](OC)[C@@H](OC)[C@@H](O[C@H]8[C@H](OC)[C@@H](OC)[C@@H](O[C@H]1[C@H](OC)[C@H]2OC)O[C@@H]8COC)O[C@@H]7COC)O[C@@H]6COC)O[C@@H]5COC)O[C@@H]4COC)O[C@@H]3COC` has a bioluminescence of 812 ± 29 RLU (Escherichia coli; LuxR reporter, agonist; DH5α sensor strain; 10 µM).
For `Cc1[nH]c(C)c(C(F)(F)F)c(=O)c1-c1ccc(Oc2ccc(OC(F)(F)F)cc2)cc1`, the IC50 was 358 ± 165 nM (Plasmodium yoelii; 17XL; 384-well).
`CCOC1=CC(c2ccc[nH]2)=N/C1=C\c1cc(Cc2ccc(Cl)cc2)c(C)[nH]1.Cl` has an ED90 of 3.07 mg/kg/day (Plasmodium yoelii; parasitaemia; mouse; 4-day treatment, parasitaemia day 5).
With `Nc1ccccc1C(=O)NCCCCNc1ccnc2ccccc12` the inhibition was 22.1% (Chromobacterium violaceum; violacein production; ATCC 31532; 10 µM, quorum sensing reporter).
With `N=C(N)c1ccc(OCc2cc(COc3ccc(C(=N)N)cc3)cc(-c3ccccc3)c2)cc1` the FICI was 0.078 (Escherichia coli; checkerboard; 552100 clinical isolate; unit not given, with: rifampicin; lower = stronger synergy).
With `CCOc1ccc2cc(-c3nn(CC4CCNCC4)c4ncnc(N)c34)ccc2c1` the EC50 was 4110 nM (Theileria equi; parasite growth, hydroethidine flow cytometry; USDA Florida; 72 h).
`Cc1[nH]c(/C=C2\N=C(c3ccc[nH]3)C=C2OCc2ccccc2)cc1Cc1ccc(OC(F)(F)F)cc1` has a parasitaemia reduction of 100% (Plasmodium yoelii; CF1 mouse; oral, 80 mg/kg single dose, day 5).
With `Cc1ccc2[nH]c(C)c(Br)c(=O)c2c1` the IC50 was 2240 ± 355 nM (Plasmodium yoelii; 17XL; 384-well).
`Cc1[nH]c(/C=C2\N=C(c3ccc[nH]3)C=C2OC(C)C)cc1Cc1ccc(Cl)cc1.Cl` has a parasitaemia reduction of 100% (Plasmodium yoelii; CF1 mice; oral, 25 mg/kg daily for 4 days, day 5; reference: vehicle).
`O=c1c2cc(Oc3ccc(OC(F)(F)F)cc3)ccc2[nH]c2cc(Cl)cc(F)c12` gave an ED50 of 1.44 mg/kg (Plasmodium yoelii; antimalarial activity; CF1 mouse; oral, once daily for 4 days).
With `COC1=CC(c2ccc[nH]2)=N/C1=C\c1cc(Cc2ccc(OC(F)(F)F)cc2)c(C)[nH]1.Cl` the parasitaemia reduction was 100% (Plasmodium yoelii; CF1 mice; oral, 10 mg/kg daily for 4 days, day 5; reference: vehicle).
With `COc1c(N2C[C@@H]3CCCN[C@@H]3C2)c(F)cc2c(=O)c(C(=O)O)cn(C3CC3)c12` the MIC50 was 0.5 µg/mL (≈ 1.25 µM) (Streptococcus pneumoniae; broth microdilution; penicillin-resistant isolates).
`C=CC[C@@H]1c2ccc(OC)c(OC)c2CN2CCc3cc4c(cc3[C@H]12)OCO4` — result for “relative wound size”: 0.18 and 0.35 and 0.2 and 0.24 and 0.16 and 0.53 (Staphylococcus aureus; P2rx7+/+ mice, skin wound infection; dose not given, day 6; reference: day 0).
For `CCOc1ccc2cc(-c3nn(CC4CCN(C)CC4)c4ncnc(N)c34)ccc2n1`, “% of maximum PPE” read 24.6% (Theileria equi; hydroethidine flow cytometry; USDA Florida; 9 µM, 72 h).
For `C[C@@H]1OC(=O)[C@H](Cc2ccccc2)[C@H]1O`, the EC50 was > 9 µg/mL (Pseudokirchneriella subcapitata; growth rate; 72 h, static test).
`Cc1[nH]c(C)c(-c2ccc(S(=O)(=O)c3ccc(Cl)cc3)cc2)c(=O)c1Cl` has an IC50 of 375 ± 112 nM (Plasmodium yoelii; 17XL; 384-well).
`COC1=CC(c2ccc[nH]2)=N/C1=C\c1[nH]c(Cc2ccc(OC(F)(F)F)cc2)cc1Cc1ccc(OC(F)(F)F)cc1` has a parasitaemia reduction of 100% (Plasmodium yoelii; CF1 mice; oral, 25 mg/kg daily for 4 days, day 5; reference: vehicle).
`O=C(CC1NCCCC1O)Cn1cnc2cc(Br)c(Cl)cc2c1=O` (stereo not shown) has an inhibition of 94% (Trichomonas gallinae; CCK-8; 20 µM, 24 h).
For `CCc1nn(C)c2nc(-c3ccc(C(=O)O)cc3)nc(NCc3ccc(F)cc3)c12`, the parasite number was 22.7% and 20.8% and 21.1% and 23.1% (Cryptosporidium parvum; HCT-8; 6 x EC90, 48 h; reference: DMSO control).
`Cc1[nH]c(C)c(-c2ccc(-c3ccc(OC(F)(F)F)cc3)cc2)c(=O)c1Br` has an IC50 of 63 ± 16 nM (Plasmodium yoelii; 17XL; 384-well).
`O=c1cccc(O)c(O)c1O`: “reduction in viral titre” 0.1 log10 (herpes simplex virus 1; viral replication; 5 µM).
`Cc1cc(=O)c(-c2ccc(Oc3cccc(OC(F)(F)F)c3)cc2)c(C)[nH]1` gave an IC50 of 450 ± 215 nM (Plasmodium yoelii; 17XL; 384-well).
`N=C(N)c1ccc(OCc2ccc(Br)cc2COc2ccc(C(=N)N)cc2)cc1` — result for “MIC of compound in combination”: 12.5 µg/mL (Escherichia coli; checkerboard; BW25113; concentration not given, lowest-FICI combination, with: erythromycin).
For `COc1ccc(C2CC(=O)C3=C(C2)NC(C)=C(C(=O)OC(C)C)C3c2cccc(O)c2)cc1OC` (stereo not shown), the IC50 was > 20000 nM (Plasmodium yoelii; 17XL; 384-well).
`Nc1nc(-c2ccccc2)nc2[nH]nc(Nc3ccc(C(F)(F)F)cc3)c12` has a clinical score of 0 (coxsackievirus B3; 31-1-93, NMRI mice, CVB3 chronic myocarditis; oral, 100 mg/kg twice daily, day 1, dosed days 3 to 10, score scale 0 to 7; direction not given).
`C[C@]12O[C@H](C[C@]1(O)CO)n1c3ccccc3c3c4c(c5c6ccccc6n2c5c31)CNC4=O` gave a viability of 5.27% (HBL-1; 0.5 µM, 120 h).
`COc1cccc(C=Cc2nc(=O)c3ccccc3o2)c1OC` has an IC50 of 28 ± 10 nM (Plasmodium yoelii; 17XL; 384-well).
The MIC of `CCCCCCCCCC(=O)N[C@@H](Cc1c[nH]c2ccccc12)C(=O)N[C@H](CC(N)=O)C(=O)N[C@@H](CC(=O)O)C(=O)N[C@@H]1C(=O)NCC(=O)N[C@@H](CCCN)C(=O)N[C@@H](CC(=O)O)C(=O)N[C@H](C)C(=O)N[C@@H](CC(=O)O)C(=O)NCC(=O)N[C@H](CO)C(=O)N[C@@H]([C@H](C)CC(=O)O)C(=O)N[C@@H](CC(=O)c2ccccc2N)C(=O)O[C@@H]1C` is reported as 0.063 µg/mL (≈ 0.0389 µM) (Staphylococcus simulans; broth microdilution; 22, Mueller-Hinton broth, Mg2+ 10 mg/L; 16 h, 30 °C, with: Ca2+ 2.5 mM).
For `CC(=Nc1ccc(N=Cc2cnccn2)cc1)N(C)C`, “worm burden reduction” read 75.8% and > 70% (Necator americanus; infected hamsters; oral, 12.5 mg/kg single dose, 49 days post infection).
For `CC[C@H]1OC(=O)[C@H](C)[C@@H](O[C@H]2C[C@@](C)(OC)[C@@H](O)[C@H](C)O2)[C@H](C)[C@@H](O[C@@H]2O[C@H](C)C[C@H](N(C)C)[C@H]2O)[C@](C)(O)C[C@@H](C)CN(C)[C@H](C)[C@@H](O)[C@]1(C)O`, the inhibition was 89.9% (Chromobacterium violaceum; bacterial viability, resazurin; ATCC 31532; 400 µM).
`CCOC(=O)c1cn(CC)c2cc(OCc3ccccc3)ccc2c1=O` gave an IC50 of 1590 ± 912 nM (Plasmodium yoelii; 17XL; 384-well).
`O=C(Nc1cccc(C2=NCCN2)c1)Nc1cccc(C2=NCCN2)c1` has an inhibition of 16.9% (Theileria equi; parasite growth, flow cytometry; horse erythrocytes, USDA Florida strain; 0.0215 µM, 72 h).
`CNC(C)C1CCC(N)C(OC2C(N)CC(N)C(OC3OCC(C)(O)C(NC)C3O)C2O)O1` (stereo not shown) has an MIC of 4 µg/mL (≈ 8.38 µM) (Pseudomonas aeruginosa; clinical isolate RKI-No_597/16).
`COC(=O)[C@@H](NCc1cc2ccccc2nc1OCc1ccccc1)C(C)C` has a growth of 90.9% (Pseudomonas aeruginosa; 128 µg/mL, with: pentamidine 100 µM; reference: control).
`Cc1ccc(N(c2ccc(NC(=O)CN(C)c3ccccc3N3CCCC3=O)cc2)C(C)C)cc1` — result for “99.9% parasite clearance time”: 55.2 h (Plasmodium falciparum; 3D7 asexual blood stage; 10 x EC50).
With `Cc1nc(C)c(Cl)c(O)c1Cl` the IC50 was 10500 nM (Trichomonas gallinae; CCK-8; trophozoites; 24 h).
For `CN[C@H](CC(C)C)C(=O)N[C@H]1C(=O)N[C@@H](CC(N)=O)C(=O)N[C@H]2C(=O)N[C@H]3C(=O)N[C@H](C(=O)N[C@H](C(=O)O)c4cc(O)cc(O)c4-c4cc3ccc4O)[C@H](O)c3ccc(c(Cl)c3)Oc3cc2cc(c3O[C@@H]2O[C@H](CO)[C@@H](O)[C@H](O)[C@H]2O[C@H]2C[C@](C)(N)[C@H](O)[C@H](C)O2)Oc2ccc(cc2Cl)[C@H]1O`, the MIC50 was 0.5 µg/mL (≈ 0.345 µM) (Streptococcus pneumoniae; penicillin-resistant, 10 isolates; pH 7.0).
`O=C(O)c1ccnc(C(=O)O)c1` gave a viability of 112% (HBL-1; 0.1 µM, 120 h).
`CCOc1ccc2cc(-c3nn(CC4CCN(C)CC4)c4ncnc(N)c34)ccc2c1` — result for “% of maximum PPE”: 36.5% (Theileria equi; hydroethidine flow cytometry; USDA Florida; 6 µM, 72 h).
With `CC(C)n1ncc2c(C(=O)NCC3(C)CNC3)cc(C3CC3)nc21` the plaque area was 114% and 102% (Enterovirus D68; viral replication; RD, recombinant wild-type US/MO/14-18947; 0.01 µM; reference: untreated).
For `Nc1nc2c(ncn2COCCO)c(=O)[nH]1`, the EC50 was 1050 nM (herpes simplex virus 1; viral cytopathic effect; Vero; 120 h).
`Cc1cc(OC(C)C)ccc1C(=O)C(C)(C)NC(=O)c1sccc1C` has an EC50 of 0.41 µg/mL (Trichoderma sp.; mycelial growth; PSA medium; 20 °C, suspension concentrate 400 g/L).
`O=[N+]([O-])c1ccc2[nH]c(CNCC34CC5CC(CC(C5)C3)C4)nc2c1` gave an MIC90 of 4 µg/mL (≈ 11.7 µM) (Streptococcus pneumoniae; 31 clinical strains).
With `N#Cc1cc(-c2nc3ccccc3s2)c(=O)n(NS(=O)(=O)c2ccccc2)c1N` the plaque reduction was 70% (herpes simplex virus 1; viral replication, plaque; Vero; non-toxic dose, mean of three titres).
For `Cc1cc(Nc2ccc(S(F)(F)(F)(F)F)cc2)n2nc(C(C)(F)F)nc2n1`, “lag phase (Tlag)” read 16 h (Plasmodium falciparum; microscopy; human malaria patients; 250 mg, median).
For `CC(C)c1cnn2c(NCc3ccccc3-n3cccn3)nc(OC3CCCNC3)nc12` (stereo not shown), the IC50 was 670 nM (herpes simplex virus 1; viral replication; K26, GFP-expressing, 3D bioprinted skin, submerged).
With `CSc1ccc(OCc2ncc([N+](=O)[O-])n2C)cc1` the IC50 was 9480 nM (Trichomonas gallinae; CCK-8; trophozoites; 24 h).
With `Cc1ccc(S(=O)(=O)Nn2c(N)c(C#N)cc(-c3nc4ccccc4s3)c2=O)cc1` the plaque reduction was 10% (coxsackievirus B4; viral replication, plaque; BGM; non-toxic dose, mean of three titres).
For `CCC1=C(CC)/C(=C/c2[nH]c(Cc3ccc(Cl)cc3)cc2Cc2ccc(Cl)cc2)N=C1c1ccc[nH]1`, the ED50 was 3.29 mg/kg/day (Plasmodium yoelii; parasitaemia; mouse; 4-day treatment, parasitaemia day 5).

Repeated from above:
`Cc1[nH]c(/C=C2\N=C(c3ccc[nH]3)C=C2OCc2ccccc2)cc1Cc1ccc(OC(F)(F)F)cc1` has a parasitaemia reduction of 100% (Plasmodium yoelii; CF1 mouse; oral, 80 mg/kg single dose, day 5).
With `Cc1ccc2[nH]c(C)c(Br)c(=O)c2c1` the IC50 was 2240 ± 355 nM (Plasmodium yoelii; 17XL; 384-well).
`Cc1[nH]c(/C=C2\N=C(c3ccc[nH]3)C=C2OC(C)C)cc1Cc1ccc(Cl)cc1.Cl` has a parasitaemia reduction of 100% (Plasmodium yoelii; CF1 mice; oral, 25 mg/kg daily for 4 days, day 5; reference: vehicle).
